# Published values from different studies.
# Values joined by “and” are separate records of one study, mostly repeats; a detail may differ. ± marks the error that the study gave.
Structure (SMILES),test,system,conditions,tissue uptake
N#C[C@@H]1CCCN1C(=O)CNC(=O)c1ccnc2ccc(OCCCN3CCN(C(=O)CCc4ccc5c(c4)CN4CCN6CC(=O)[O][68Ga-]([O]C(=O)C4)([O]5)[O]c4ccc(CCC(=O)N5CCN(CCCOc7ccc8nccc(C(=O)NCC(=O)N9CCC[C@H]9C#N)c8c7)CC5)cc4C6)CC3)cc12,,"BALB/c nude mice, U-87 MG xenograft, spleen",2 h,0.68 ± 0.1 %ID/g
CC[C@H](C)[C@H](NC(=O)C[C@H](NC(=O)CN1CCN2CCN(CC1)CC(=O)[O][Al]([18F])[O]C(=O)C2)C(=O)O)C(=O)N[C@H]1CCc2cccc3c2N(C1=O)[C@H](C(=O)NCc1cn[nH]n1)C3,,"C57BL/6J mice, MC-38 tumour, anti-PD-1 treated, stomach",0.5 h,1.53 ± 0.6 %ID/g
CCCC[C@H](NC(=O)CNC(=O)CNC(=O)[C@H](CCCCNC(=O)[C@H](CC(N)=O)NC(=O)C(C)c1ccc(CC(C)C)cc1)NC(=O)CN1CCN(CC(=O)O)CCN(CC(=O)O)CCN(CC(=O)O)CC1)C(=O)N[C@H]1CC(=O)NCCCC[C@@H](C(N)=O)NC(=O)[C@H](Cc2c[nH]c3ccccc23)NC(=O)[C@H](CCCNC(=N)N)NC(=O)[C@@H](Cc2ccccc2)NC(=O)[C@H](Cc2c[nH]cn2)NC1=O (stereo partly shown) [lutetium-177 labelled],,"C57 mice, tumour-bearing, kidneys",2 h,29.9 ± 2.56 %ID/g
CCCC[C@H](NC(=O)CCCCCCCNC(=O)CN1CCN(CC(=O)O)CCN(CC(=O)O)CC1)C(=O)N[C@H]1CC(=O)NCCCC[C@@H](C(N)=O)NC(=O)[C@H](Cc2c[nH]c3ccccc23)NC(=O)[C@H](CCCNC(=N)N)NC(=O)[C@@H](Cc2ccccc2)NC(=O)[C@H](Cc2c[nH]cn2)NC1=O [fluorine-18 labelled],,"C57 mice B16-F10 melanoma, lung","intravenous, 0.37 MBq, 2 h",0.71 ± 0.19 %ID/g
CC(=O)N([O-])CCCCCNC(=O)CCC(=O)N([O-])CCCCCNC(=O)CCC(=O)N([O-])CCCCCN.[89Zr+4],gamma counting,"healthy Balb/c mice, adrenal","intravenous, 24 h, 89Zr-labelled complex",0.08 ± 0.01 %ID/g
Cc1nc(N)nc2c1C(=O)N[C@@H](c1ccc(F)cc1-c1cccc(OCC[18F])n1)C2,ex vivo biodistribution,"C57BL/6 mice, pancreas","intravenous, 1 MBq, 30 min",1 ± 0.02 %ID
N#C[C@@H]1CCCN1C(=O)CNC(=O)c1ccnc2ccc(OCCCN3CCN(C(=O)CCc4ccc(O)c(CN5CCN6CC(=O)[O][Al-]([18F])([O]C(=O)C5)[O]c5ccc(CCC(=O)N7CCN(CCCOc8ccc9nccc(C(=O)NCC(=O)N%10CCC[C@H]%10C#N)c9c8)CC7)cc5C6)c4)CC3)cc12 (stereo partly shown),,"BALB/c nude mice, U-87 MG xenograft, stomach","1 h, blocking, together with: DOTA-FAPI-04 40 nmol/mouse co-injected",2.05 ± 0.61 %ID/g
COc1ccc2c(c1)C(C)(C)C(/C=C/C1=C(Oc3ccc(C(=O)NCCCCOc4cc(CN(Cc5ccccn5)Cc5ccccn5)cc(CN(Cc5ccccn5)Cc5ccccn5)c4)cc3)C(=C/C=C3/N(CCCCS(=O)(=O)[O-])c4ccc(OC)cc4C3(C)C)CCC1)=[N+]2CCCCS(=O)(=O)[O-].O=[N+]([O-])[O-].O=[N+]([O-])[O-].[99Tc+].[C-]#[O+].[C-]#[O+].[C-]#[O+].[Zn+2],,"BALB/c mice, S. aureus myositis, contralateral muscle",12 h post-injection,0.21 %ID/g and 0.1 %ID/g and 0.13 %ID/g and 0.24 %ID/g
CC(C)c1noc(C2CCN(c3ncnc(Nc4ccc(OCC[18F])cc4)c3[N+](=O)[O-])CC2)n1,ex vivo biodistribution after PET,"C57BL/J male mice, heart",60 min,1.21 ± 0.15 %ID/g
C[N+](C)(CCOCCOCCOCCOCCOCCOCCOCCNC(=S)Nc1ccc(CC2CN(CC(=O)[O-])CCN(CC(=O)[O-])CCN2CC(=O)[O-])cc1)C[c-]1cccc1.[64Cu+2].[Fe+2].c1cc[cH-]c1 (stereo not shown),refers to: large intestine,"nude mice, BxPC-3 tumour","8 h post injection, pretargeting, 72 h lag",4.8 ± 1.1 %ID/g
CN(O)C(=O)CCC(=O)NCCCN(CCCCN(CCCNC(=O)CCC(=O)N(C)O)C(=O)CCC(=O)N(C)O)C(=O)CCC(=O)N(C)O.[89Zr],gamma counting,"healthy Balb/c mice, plasma","intravenous, 1 h, 89Zr-labelled complex",1.24 ± 0.23 %ID/g
C[N+](C)(CCOCCOCCOCCNC(=S)Nc1ccc(C[C@H]2CN(CC(=O)[O-])CCN(CC(=O)[O-])CCN2CC(=O)[O-])cc1)C[c-]1cccc1.[64Cu+2].[Fe+2].c1cc[cH-]c1,refers to: kidney,"nude mice, BxPC-3 tumour","8 h, pretargeting, 72 h lag",0.4 %ID/g
O=C(NCC1OC2CCC=CCCC2O1)c1ccc([18F])nc1 (stereo not shown),,"female BALB/c nude mice, LS174T tumour, muscle","intravenous, 60 min, together with: CC49-tetrazine 24 h before",0.6 ± 0.3 %ID/g
Cc1cc(C)n(CCN(CCN)CCCCCCNC(=O)[C@@H](N)Cc2c[nH]cn2)n1.[99Tc+].[C-]#[O+].[C-]#[O+].[C-]#[O+],,"BALB/c nude mice, MCF7 xenograft, spleen","intravenous, 4 h",0.28 ± 0.03 %IA/g
CCCC[C@H](NC(=O)COCCOCCNC(=O)CN1CCN(CC(=O)O)CCN(CC(=O)O)CC1)C(=O)N[C@H]1CC(=O)NCCCC[C@@H](C(N)=O)NC(=O)[C@H](Cc2c[nH]c3ccccc23)NC(=O)[C@H](CCCNC(=N)N)NC(=O)[C@@H](Cc2ccccc2)NC(=O)[C@H](Cc2c[nH]cn2)NC1=O [fluorine-18 labelled],,"C57 mice inflamed muscle, inflamed muscle","intravenous, 1 h, together with: NDP-MSH 10 µg co-injected",0.44 %ID/g
CC(C)C[C@H](NC(=O)[C@@H](CCCCNC(=O)[C@@H](Cc1ccccc1)NC(=O)CCCCCCCNC(=O)CN1CCN(CC(=O)O)CCN(CC(=O)O)CCN(CC(=O)O)CC1)NC(=O)[C@H](Cc1ccc(O)cc1)NC(=O)[C@H](CO)NC(=O)[C@H](Cc1c[nH]c2ccccc12)NC(=O)[C@H](Cc1c[nH]cn1)NC(=O)[C@@H]1CCC(=O)N1)C(=O)N[C@@H](CCCNC(=N)N)C(=O)N1CCC[C@H]1C(=O)NCC(N)=O [indium-111 labelled],,"male athymic nude mice, DU-145 xenograft, kidney","intravenous, 1 h, together with: 10 µg unlabelled blocking peptide",9.63 ± 1.47 %ID/g
CCCC[C@H](NC(=O)CNC(=O)CNC(=O)[C@H](CCCCNC(=O)[C@H](CC(=O)O)NC(=O)C(C)c1ccc(CC(C)C)cc1)NC(=O)CN1CCN(CC(=O)O)CCN(CC(=O)O)CCN(CC(=O)O)CC1)C(=O)N[C@H]1CC(=O)NCCCC[C@@H](C(N)=O)NC(=O)[C@H](Cc2c[nH]c3ccccc23)NC(=O)[C@H](CCCNC(=N)N)NC(=O)[C@@H](Cc2ccccc2)NC(=O)[C@H](Cc2c[nH]cn2)NC1=O (stereo partly shown) [lutetium-177 labelled],,"C57 mice, tumour-bearing, kidneys","intravenous, 0.037 MBq, 4 h",13.5 ± 1.42 %ID/g
O=C([O-])CN1CCN(CC(=O)[O-])CCN(CC(=O)NC[C@H]2CC[C@H](C(=O)N[C@H](Cc3cnc4ccccc4c3)C(=O)NCCCC[C@H](NC(=O)N[C@@H](CCC(=O)O)C(=O)O)C(=O)O)CC2)CCN(CC(=O)[O-])CC1.[64Cu+2],ex vivo gamma counting,"22Rv1 tumour-bearing mice, kidney","intravenous, 0.74 MBq, 6 h post-injection",43.6 %ID/g
COc1ccc(Nc2nc(Nc3ccc(OCCOCCOCC[18F])cc3)ncc2Br)cc1,,"ICR mice, S180 tumour, intestine","intravenous, 370 kBq, 120 min",5.72 ± 0.13 %ID
N#C[C@@H]1CC(F)(F)CN1C(=O)CNC(=O)c1ccnc2c(NC(=O)[C@H](CCCCNC(=O)CCOCCOCCOCCOCCOCCOCCNC(=O)CN3CCN(CC(=O)[O-])CCN(CC(=O)[O-])CCN(CC(=O)[O-])CC3)NC(=O)CCCc3ccc(I)cc3)cccc12.[177Lu+3],biodistribution,"U-87 MG tumour-bearing mice, tumor",48 h,4.83 ± 0.24 %ID/g
COc1ccc(Nc2nc(Nc3ccc(OCCOCC[18F])cc3)ncc2Br)cc1,,"ICR mice, S180 tumour-bearing, kidney","intravenous, 370 kBq, 5 min",5.67 ± 0.12 %ID/g
O=C(NCC1OC2CCC=CCCC2O1)c1ccc(COCCOCCOCC[18F])cc1 (stereo not shown),,"healthy female BALB/c nude mice, bladder","intravenous, 7.4 MBq per mouse, 60 min",3.2 ± 0.8 %ID/g

# Repeated from above:
Structure (SMILES),test,system,conditions,tissue uptake
C[N+](C)(CCOCCOCCOCCOCCOCCOCCOCCNC(=S)Nc1ccc(CC2CN(CC(=O)[O-])CCN(CC(=O)[O-])CCN2CC(=O)[O-])cc1)C[c-]1cccc1.[64Cu+2].[Fe+2].c1cc[cH-]c1 (stereo not shown),refers to: large intestine,"nude mice, BxPC-3 tumour","8 h post injection, pretargeting, 72 h lag",4.8 ± 1.1 %ID/g
CN(O)C(=O)CCC(=O)NCCCN(CCCCN(CCCNC(=O)CCC(=O)N(C)O)C(=O)CCC(=O)N(C)O)C(=O)CCC(=O)N(C)O.[89Zr],gamma counting,"healthy Balb/c mice, plasma","intravenous, 1 h, 89Zr-labelled complex",1.24 ± 0.23 %ID/g
